Results gathered from unrelated publications.
Each numbered part is a random draw from the data of one study; scales do not carry over between parts. Values joined by “and” are separate records of one study, mostly repeats; a detail may differ.
Sequence of UniProt P35626 (whole entry, looked up): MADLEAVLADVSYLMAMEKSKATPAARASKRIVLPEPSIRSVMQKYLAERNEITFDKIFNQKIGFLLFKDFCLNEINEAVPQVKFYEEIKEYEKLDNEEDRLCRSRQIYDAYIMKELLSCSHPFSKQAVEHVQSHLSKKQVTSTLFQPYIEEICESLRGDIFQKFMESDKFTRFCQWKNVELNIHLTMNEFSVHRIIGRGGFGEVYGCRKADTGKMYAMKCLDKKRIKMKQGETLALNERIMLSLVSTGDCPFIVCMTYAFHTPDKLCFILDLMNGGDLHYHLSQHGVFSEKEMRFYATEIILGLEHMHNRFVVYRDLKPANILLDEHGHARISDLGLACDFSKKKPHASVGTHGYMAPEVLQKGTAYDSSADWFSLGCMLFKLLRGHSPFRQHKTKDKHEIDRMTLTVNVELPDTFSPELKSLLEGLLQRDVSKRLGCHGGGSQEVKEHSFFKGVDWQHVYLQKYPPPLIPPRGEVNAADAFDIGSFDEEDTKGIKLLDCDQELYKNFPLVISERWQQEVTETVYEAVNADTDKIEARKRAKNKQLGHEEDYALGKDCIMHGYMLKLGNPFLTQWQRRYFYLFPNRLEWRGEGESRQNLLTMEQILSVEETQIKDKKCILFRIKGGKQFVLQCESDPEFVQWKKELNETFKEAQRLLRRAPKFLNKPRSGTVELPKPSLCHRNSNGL
Sequence of UniProt Q9H093 (whole entry, looked up): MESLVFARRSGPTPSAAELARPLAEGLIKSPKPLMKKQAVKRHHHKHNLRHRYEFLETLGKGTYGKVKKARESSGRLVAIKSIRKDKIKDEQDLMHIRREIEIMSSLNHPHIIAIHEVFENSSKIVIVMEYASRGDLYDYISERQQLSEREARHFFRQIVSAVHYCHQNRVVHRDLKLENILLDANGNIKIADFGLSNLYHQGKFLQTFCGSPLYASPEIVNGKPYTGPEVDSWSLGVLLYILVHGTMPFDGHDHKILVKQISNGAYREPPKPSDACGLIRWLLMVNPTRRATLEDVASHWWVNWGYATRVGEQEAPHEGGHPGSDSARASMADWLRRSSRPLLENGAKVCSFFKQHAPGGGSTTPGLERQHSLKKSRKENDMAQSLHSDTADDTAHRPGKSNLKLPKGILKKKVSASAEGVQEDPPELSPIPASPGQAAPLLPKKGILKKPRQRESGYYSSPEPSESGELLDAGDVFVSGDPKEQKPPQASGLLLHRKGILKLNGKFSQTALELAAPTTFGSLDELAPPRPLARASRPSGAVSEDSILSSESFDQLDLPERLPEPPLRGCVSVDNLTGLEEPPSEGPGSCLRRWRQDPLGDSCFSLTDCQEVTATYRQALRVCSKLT
Sequence of UniProt Q13557 (whole entry, looked up): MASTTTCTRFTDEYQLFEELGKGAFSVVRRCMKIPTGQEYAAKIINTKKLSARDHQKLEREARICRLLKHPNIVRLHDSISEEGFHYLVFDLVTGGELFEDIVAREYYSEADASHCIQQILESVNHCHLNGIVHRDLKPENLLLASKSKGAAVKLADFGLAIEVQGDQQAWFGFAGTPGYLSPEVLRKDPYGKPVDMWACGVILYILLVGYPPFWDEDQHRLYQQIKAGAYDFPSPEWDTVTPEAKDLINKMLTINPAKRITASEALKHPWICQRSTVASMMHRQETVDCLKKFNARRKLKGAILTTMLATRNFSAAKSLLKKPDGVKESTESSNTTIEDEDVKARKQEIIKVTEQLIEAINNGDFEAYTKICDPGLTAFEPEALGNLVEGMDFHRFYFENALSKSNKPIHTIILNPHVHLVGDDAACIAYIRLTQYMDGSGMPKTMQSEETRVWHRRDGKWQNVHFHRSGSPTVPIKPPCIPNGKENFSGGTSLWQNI
Sequence of UniProt P53355 (whole entry, looked up): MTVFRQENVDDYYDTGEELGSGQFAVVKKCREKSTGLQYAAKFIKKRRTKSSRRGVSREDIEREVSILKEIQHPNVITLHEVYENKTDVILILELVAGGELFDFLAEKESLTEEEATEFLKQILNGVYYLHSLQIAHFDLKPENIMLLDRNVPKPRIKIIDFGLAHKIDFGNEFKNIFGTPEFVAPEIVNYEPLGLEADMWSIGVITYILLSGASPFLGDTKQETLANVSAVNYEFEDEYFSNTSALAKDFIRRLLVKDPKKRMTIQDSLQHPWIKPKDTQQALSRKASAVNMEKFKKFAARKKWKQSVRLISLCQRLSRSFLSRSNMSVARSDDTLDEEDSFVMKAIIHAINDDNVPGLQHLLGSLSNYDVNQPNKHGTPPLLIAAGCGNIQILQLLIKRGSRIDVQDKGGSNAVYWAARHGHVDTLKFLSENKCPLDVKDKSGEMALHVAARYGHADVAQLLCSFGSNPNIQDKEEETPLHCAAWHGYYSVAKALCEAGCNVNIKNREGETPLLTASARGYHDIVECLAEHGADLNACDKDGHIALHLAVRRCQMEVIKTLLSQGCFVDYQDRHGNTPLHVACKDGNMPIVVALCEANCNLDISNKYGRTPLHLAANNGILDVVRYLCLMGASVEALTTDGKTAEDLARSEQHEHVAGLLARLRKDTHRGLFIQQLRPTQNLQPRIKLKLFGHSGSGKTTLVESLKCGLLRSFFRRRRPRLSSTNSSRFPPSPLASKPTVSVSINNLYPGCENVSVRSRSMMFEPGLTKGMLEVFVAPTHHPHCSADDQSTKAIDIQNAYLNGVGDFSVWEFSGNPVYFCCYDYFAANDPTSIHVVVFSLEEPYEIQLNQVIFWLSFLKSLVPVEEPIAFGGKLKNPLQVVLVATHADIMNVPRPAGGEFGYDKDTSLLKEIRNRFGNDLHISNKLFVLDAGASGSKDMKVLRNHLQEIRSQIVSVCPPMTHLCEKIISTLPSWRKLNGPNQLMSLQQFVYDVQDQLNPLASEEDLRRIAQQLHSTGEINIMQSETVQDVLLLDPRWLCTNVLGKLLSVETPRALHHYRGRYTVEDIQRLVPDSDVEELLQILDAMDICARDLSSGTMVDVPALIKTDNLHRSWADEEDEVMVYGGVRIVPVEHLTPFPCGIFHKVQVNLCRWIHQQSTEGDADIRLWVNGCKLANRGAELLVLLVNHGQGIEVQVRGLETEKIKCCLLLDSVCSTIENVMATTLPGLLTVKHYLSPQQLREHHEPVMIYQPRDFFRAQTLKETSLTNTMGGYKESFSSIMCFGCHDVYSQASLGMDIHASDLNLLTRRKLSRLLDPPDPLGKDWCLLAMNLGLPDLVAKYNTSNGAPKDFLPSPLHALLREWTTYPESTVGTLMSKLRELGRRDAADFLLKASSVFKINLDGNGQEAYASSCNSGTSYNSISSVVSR
Sequence of UniProt Q8N4C8 (whole entry, looked up): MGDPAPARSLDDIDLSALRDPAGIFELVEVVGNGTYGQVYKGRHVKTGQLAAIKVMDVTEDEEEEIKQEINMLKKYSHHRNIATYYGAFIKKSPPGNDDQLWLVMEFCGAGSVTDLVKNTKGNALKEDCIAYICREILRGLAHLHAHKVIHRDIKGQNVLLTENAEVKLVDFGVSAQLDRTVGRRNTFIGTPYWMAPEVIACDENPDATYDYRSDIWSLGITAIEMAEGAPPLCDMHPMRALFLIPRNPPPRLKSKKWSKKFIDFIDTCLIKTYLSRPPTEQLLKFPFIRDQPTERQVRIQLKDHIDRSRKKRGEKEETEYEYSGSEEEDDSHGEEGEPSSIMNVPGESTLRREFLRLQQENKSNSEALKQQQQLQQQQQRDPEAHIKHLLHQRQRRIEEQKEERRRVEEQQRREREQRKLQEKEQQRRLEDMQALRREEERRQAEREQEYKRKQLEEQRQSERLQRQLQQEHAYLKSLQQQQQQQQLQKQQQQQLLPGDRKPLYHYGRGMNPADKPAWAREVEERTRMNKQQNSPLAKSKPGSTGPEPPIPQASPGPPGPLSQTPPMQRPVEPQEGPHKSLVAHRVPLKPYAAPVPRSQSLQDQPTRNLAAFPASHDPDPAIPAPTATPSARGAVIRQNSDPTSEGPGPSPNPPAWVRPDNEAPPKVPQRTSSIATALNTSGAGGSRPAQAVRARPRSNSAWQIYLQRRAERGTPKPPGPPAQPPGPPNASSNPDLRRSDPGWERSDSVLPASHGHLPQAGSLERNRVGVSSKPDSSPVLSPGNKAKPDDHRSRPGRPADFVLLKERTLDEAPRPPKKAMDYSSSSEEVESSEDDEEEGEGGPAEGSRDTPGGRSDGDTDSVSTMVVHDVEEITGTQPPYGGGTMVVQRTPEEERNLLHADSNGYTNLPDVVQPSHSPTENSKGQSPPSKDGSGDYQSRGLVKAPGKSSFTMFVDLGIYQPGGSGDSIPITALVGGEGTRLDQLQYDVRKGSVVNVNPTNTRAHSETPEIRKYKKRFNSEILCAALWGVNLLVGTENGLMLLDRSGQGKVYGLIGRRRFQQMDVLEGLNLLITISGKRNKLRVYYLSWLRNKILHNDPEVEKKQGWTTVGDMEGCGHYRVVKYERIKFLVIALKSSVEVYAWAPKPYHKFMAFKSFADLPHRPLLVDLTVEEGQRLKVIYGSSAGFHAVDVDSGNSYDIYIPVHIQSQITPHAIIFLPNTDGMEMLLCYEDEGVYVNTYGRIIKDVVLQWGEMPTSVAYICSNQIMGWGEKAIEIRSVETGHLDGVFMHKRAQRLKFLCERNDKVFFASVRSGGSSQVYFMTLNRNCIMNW
Sequence of UniProt Q92772 (whole entry, looked up): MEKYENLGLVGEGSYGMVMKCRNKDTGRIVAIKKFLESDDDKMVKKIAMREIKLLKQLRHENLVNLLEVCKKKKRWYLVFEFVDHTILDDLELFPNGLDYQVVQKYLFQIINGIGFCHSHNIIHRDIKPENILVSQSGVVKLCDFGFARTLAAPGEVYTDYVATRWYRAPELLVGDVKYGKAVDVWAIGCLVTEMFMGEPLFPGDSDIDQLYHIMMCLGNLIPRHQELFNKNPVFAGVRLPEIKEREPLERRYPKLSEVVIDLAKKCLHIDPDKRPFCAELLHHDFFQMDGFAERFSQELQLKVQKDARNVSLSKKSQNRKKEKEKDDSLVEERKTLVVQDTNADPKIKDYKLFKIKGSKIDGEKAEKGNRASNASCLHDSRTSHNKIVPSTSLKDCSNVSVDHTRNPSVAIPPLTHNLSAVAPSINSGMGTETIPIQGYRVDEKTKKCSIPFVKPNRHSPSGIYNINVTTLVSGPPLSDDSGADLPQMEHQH

Study 1 — technique: competition with immobilised ligand; tested at: 1 µM
Compound: CC(=O)c1c(NS(C)(=O)=O)c2cc(-c3ccc(Cl)cc3)c(-c3ccc(Cl)cc3Cl)nc2n(C)c1=O
It gave 83% for remaining binding (CDK8 (Homo sapiens, UniProt P49336); cell-free assay).
It gave 76% for remaining binding (CDK16 (Homo sapiens, UniProt Q00536); cell-free assay).
The remaining binding was 97% (Tyrosine-protein kinase JAK2, JH1 (JAK2, Homo sapiens, UniProt O60674); cell-free assay).
For Tyrosine-protein kinase ABL1, phosphorylated (ABL1, Homo sapiens, UniProt P00519, E255K); binding: remaining binding read 100%.
It gave 76% for remaining binding (Ribosomal protein S6 kinase alpha-6, N-terminal kinase domain (RPS6KA6, Homo sapiens, UniProt Q9UK32); cell-free assay).
It gave 100% for remaining binding (MINK1 (Homo sapiens, UniProt Q8N4C8); cell-free assay).
It gave 100% for remaining binding (CAMKK1 (Homo sapiens, UniProt Q8N5S9); cell-free assay).
The remaining binding was 100% (HUNK (Homo sapiens, UniProt P57058); cell-free assay).
It gave 83% for remaining binding (GRK7 (Homo sapiens, UniProt Q8WTQ7); cell-free assay).
The remaining binding was 97% (MAPK13 (Homo sapiens, UniProt O15264); cell-free assay).
For ITK (Homo sapiens, UniProt Q08881); cell-free assay: remaining binding read 97%.
The remaining binding was 93% (DYRK2 (Homo sapiens, UniProt Q92630); cell-free assay).
It gave 100% for remaining binding (MTOR (Homo sapiens, UniProt P42345); cell-free assay).
CDKL2 (Homo sapiens, UniProt Q92772); cell-free assay — remaining binding: 99%.
The remaining binding was 64% (NTRK1 (Homo sapiens, UniProt P04629); cell-free assay).
GRK3 (Homo sapiens, UniProt P35626); cell-free assay — remaining binding: 100%.
It gave 95% for remaining binding (IRAK4 (Homo sapiens, UniProt Q9NWZ3); cell-free assay).
The remaining binding was 100% (MAP3K9 (Homo sapiens, UniProt P80192); cell-free assay).
The remaining binding was 93% (MAK (Homo sapiens, UniProt P20794); cell-free assay).
TRPM6 (Homo sapiens, UniProt Q9BX84); cell-free assay — remaining binding: 100%.
It gave 86% for remaining binding (NUAK1 (Homo sapiens, UniProt O60285); cell-free assay).
GRK4 (Homo sapiens, UniProt P32298); cell-free assay — remaining binding: 94%.
The remaining binding was 89% (NUAK2 (Homo sapiens, UniProt Q9H093); cell-free assay).
The remaining binding was 92% (IRAK1 (Homo sapiens, UniProt P51617); cell-free assay).
For TIE1 (Homo sapiens, UniProt P35590); cell-free assay: remaining binding read 100%.

Study 2 — host: C57BL/6 CES1-/- mice, MC-38 tumour; dose: dose not given; with: anti-PD-1; reference: initial
Compound: CC(=O)N[C@@H](Cc1c[nH]c2ccccc12)C(=O)N[C@@H](CCC(=O)C=[N+]=[N-])C(=O)OC(C)C
The body weight was 97% and 92.4% and 100% and 91.8% and 98.2% and 97.7% and 98% (day 34 after inoculation).
For day 20 after inoculation: body weight read 97.8% and 95.2% and 96.2% and 98.2% and 100% and 95.4% and 101%.
day 42 after inoculation — body weight: 96.4% and 95.9% and 99.3% and 93% and 97.2% and 102%.
day 61 after inoculation — body weight: 91.9% and 92.2% and 103% and 102% and 107%.
It gave 96.7% and 95.9% and 101% and 97.5% and 98.1% and 99.1% for body weight (day 16 after inoculation).

Study 3 — organism: Sarcocystis neurona; observed: parasite activity; tested at: concentration not given
For `CC1(C)S[C@@H]2[C@H](NC(=O)Cc3ccccc3)C(=O)N2[C@H]1C(=O)[O-].[K+]`, activity class read “inactive”.
`Cl.c1ccc2c(c1)CCCC2C1=NCCN1` (centres unmarked) — result for activity class: “inactive”.
Under activity class, `CC(=O)O.CNC(=N)NCCC[C@H](N)C(=O)O` is recorded as “inactive”.
Under activity class, `CC[C@@H]1C(=O)OC[C@@H]1Cc1cncn1C.Cl` is recorded as “inactive”.

Study 4 — host: mouse; medium: microsomes or S9; tested at: 2 µM; time: 0.5 h
With `CCOc1ccc(CCNCc2c(C(=O)O)c(C)n(-c3ccccc3)c2C)cc1OCC` the remaining compound was 18.2%.
`N#Cc1cccc(-c2cncc3cc(-c4ccccc4C(=O)O)oc23)c1` gave a remaining compound of 16.1%.
For `CC(=O)N1N=C(c2ccc(C)cc2)OC1c1ccc(C(C)C)cc1` (centres unmarked), the remaining compound was 6.14%.
For `CCCCCOC(=O)C1[C@H]2C(=O)N(CCCOC)C[C@]23C=C[C@H]1O3` (some centres unmarked), the remaining compound was 10.7%.
For `CC1CCC(NS(=O)(=O)CC(=O)Nc2cc(-c3ccsc3)nn2C)CC1` (centres unmarked), the remaining compound was 39.4%.
The remaining compound of `COc1c(Br)ccc2c1sc1ncnc(NC(C)C(=O)O)c12` (centres unmarked) is reported as 77.2%.
The remaining compound of `O=C(NC(c1ccccc1)c1cccc2ccccc12)c1nc(=O)[nH][nH]1` (centres unmarked) is reported as 69.7%.
`OCC(O)Cn1c(-c2ccc(F)cc2)nc2ccccc21` (centres unmarked) gave a remaining compound of 76.9%.

Study 5 — observed: enzyme activity; mode: inhibitor; tested at: 0.5 µM; reference: control
SMILES: CSc1nc(-c2ccnc(N[C@@H](C)c3ccccc3)c2)c(-c2ccc(F)cc2)[nH]1 (racemic)
It gave 108% for remaining activity (PRKCA (Homo sapiens, UniProt P17252)).
MAPK9 (Homo sapiens, UniProt P45984) — remaining activity: 31.1%.
The remaining activity was 80% (MAP3K3 (Homo sapiens, UniProt Q99759)).
For STK10 (Homo sapiens, UniProt O94804): remaining activity read 86.8%.
For IKBKE (Homo sapiens, UniProt Q14164): remaining activity read 84%.
The remaining activity was 99.3% (CAMK2D (Homo sapiens, UniProt Q13557)).
For GRK3 (Homo sapiens, UniProt P35626): remaining activity read 96.4%.
It gave 101% for remaining activity (DAPK1 (Homo sapiens, UniProt P53355)).
